Measured values of several laboratories.
± gives the spread as reported.
Cell line: T47D

SMILES | effect on | method | time | IC50
Cc1cc(C=O)cc(C)c1Oc1cc(Nc2ccc(C#N)cn2)nc2ccncc12 | – | – | 48 h | > 126 µM
CCCCCC(C)n1c(-c2cccnc2)nc(-c2ccc(C)cc2)c1-c1ccc(C)cc1 (centres unmarked) | cell growth or viability | SRB | 24 h | 44.1 µM
Cc1ccc(C2=NN(C3=NC(=O)/C(=C/c4ccc(Cl)cc4)S3)C(c3ccc(F)cc3)C2)cc1 (centres unmarked) | cell growth or viability | MTT | – | 7.06 µM
Cc1ccc(C(C)C)cc1.Cc1ncc(CO)c(C=NNC2=Nc3ccccc3-c3[nH]c4ccc(Br)cc4c3C2)c1O.[Cl-].[Cl][Os+] | cell growth or viability | MTT | 96 h | 12 µM
Cc1ccc(C2=NN(C3=NC(=O)/C(=C/c4ccc(N(C)C)cc4)S3)C(c3ccc(F)cc3)C2)cc1 (centres unmarked) | cell growth or viability | MTT | – | 43.1 µM
CCCCCCCCn1c(-c2cccnc2)nc(-c2ccccc2)c1-c1ccccc1 | cell growth or viability | SRB | 48 h | > 100 µM
Cc1ccc(C(C)C)cc1.Oc1ccccc1C=NNC1=Nc2ccccc2-c2[nH]c3ccc(Br)cc3c2C1.[Cl-].[Cl][Ru+] | cell growth or viability | MTT | 96 h | 0.8 µM
C#CCOc1ccc(/C=N\NC(=O)c2ccncc2)cc1 | cell growth or viability | MTT | 48 h | 347 µM
Cc1ccc(-c2nc(-c3cccnc3)[nH]c2-c2ccc(C)cc2)cc1 | cell growth or viability | SRB | 24 h | > 100 µM
COc1ccc(C2=NN(C3=NC(=O)C(=Cc4ccc(O)cc4)S3)C(c3ccc(F)cc3)C2)cc1 (centres unmarked) | cell growth or viability | MTT | – | 0.88 µM
Cc1cc(C)c(C[n+]2cn(C3CCCC3)c3ccccc32)c(C)c1 | cell growth or viability | MTT | 48 h | 24 µM
CCCCCCCCCCCCn1c(-c2cccnc2)nc(-c2ccc(C)cc2)c1-c1ccc(C)cc1 | cell growth or viability | SRB | 24 h | > 100 µM
CN(C)c1ccc(/C=C2\SC(N3N=C(c4cccs4)CC3c3ccc(F)cc3)=NC2=O)cc1 (centres unmarked) | cell growth or viability | MTT | – | 29.1 µM
Oc1cc2c3c(c1)COc1cc(O)cc(c1-3)CC2 | cell growth or viability | MTT | 48 h | 111 µM
O=C1N=C(N2N=C(c3cccs3)CC2c2ccc(F)cc2)S/C1=C\c1ccccc1 (centres unmarked) | cell growth or viability | MTT | – | 12.9 µM
Cc1cc(/C=C/C#N)cc(C)c1Oc1cc(Nc2ccc(C#N)cn2)nc2cnccc12 | – | – | 48 h | > 120 µM
c1ccc(-c2nc(-c3cccnc3)[nH]c2-c2ccccc2)cc1 | cell growth or viability | SRB | 48 h | > 100 µM
Cc1ccc(C2=NN(C3=NC(=O)C(=Cc4ccc(O)cc4)S3)C(c3ccc(F)cc3)C2)cc1 (centres unmarked) | – | – | – | 1.15 ± 0.56 µM
CCCCn1c(-c2cccnc2)nc(-c2ccc(C)cc2)c1-c1ccc(C)cc1 | cell growth or viability | SRB | 24 h | 83.2 µM
Cc1cc(C=O)cc(C)c1Oc1cc(Nc2ccc(C#N)cc2)nc2ccncc12 | – | – | 48 h | 42.1 ± 3.9 µM

Some of these lines once more:
SMILES | effect on | method | time | IC50
C#CCOc1ccc(/C=N\NC(=O)c2ccncc2)cc1 | cell growth or viability | MTT | 48 h | 347 µM
Cc1ccc(-c2nc(-c3cccnc3)[nH]c2-c2ccc(C)cc2)cc1 | cell growth or viability | SRB | 24 h | > 100 µM
COc1ccc(C2=NN(C3=NC(=O)C(=Cc4ccc(O)cc4)S3)C(c3ccc(F)cc3)C2)cc1 (centres unmarked) | cell growth or viability | MTT | – | 0.88 µM
